Published values pooled from the literature.
Lines come from different studies, so protocols differ.
Target: Kappa-type opioid receptor (OPRK1, Homo sapiens, UniProt P41145)
Chain of UniProt P41145 (whole entry, looked up): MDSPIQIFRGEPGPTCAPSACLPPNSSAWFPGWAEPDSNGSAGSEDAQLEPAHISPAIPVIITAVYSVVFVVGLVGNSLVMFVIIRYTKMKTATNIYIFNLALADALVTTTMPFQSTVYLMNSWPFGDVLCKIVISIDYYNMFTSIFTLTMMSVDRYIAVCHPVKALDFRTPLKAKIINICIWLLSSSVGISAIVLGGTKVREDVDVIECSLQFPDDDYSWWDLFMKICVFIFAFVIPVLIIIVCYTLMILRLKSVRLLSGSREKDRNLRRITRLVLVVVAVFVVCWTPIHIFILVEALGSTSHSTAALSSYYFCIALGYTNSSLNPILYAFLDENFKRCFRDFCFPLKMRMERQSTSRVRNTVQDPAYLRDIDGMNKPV

| SMILES | test | system | conditions | how to read | endpoint | result |
| --- | --- | --- | --- | --- | --- | --- |
| NC(=O)c1cccc(CN(Cc2ccc(Cl)c(Cl)c2)C(=O)NC(CN2CCCCC2)c2ccccc2)c1 (stereo not drawn) | beta-arrestin recruitment | – | – | relative to: reference agonist | delta log(tau/KA) | -2.32 |
| Cc1[nH]nc2c1N=C(c1ccccc1Cl)c1cnc(N3CCOCC3)cc1N2 | cell-free assay | – | 10 µM | – | inhibition | 4% |
| COc1ccc(C(=O)Nc2c(-c3cccs3)nc3ccccn23)cc1 | ligand displacement, radioligand | – | 10 µM | – | inhibition | < 50% |
| Cn1ccc2cc(-n3c(=O)[nH]c4sc5c(c4c3=O)CCCC5)ccc21 | ligand displacement, radioligand | – | 10 µM | – | inhibition | 10% |
| COc1ccc(C#CC2=C[C@H]3C[C@@]4(OC(=O)C=C24)[C@H]2CC[C@H](C(OC)OC)N32)cc1 | ligand displacement, radioligand | – | 10 µM | – | inhibition | 30% |
| CC(=O)C12NC(C)(C)CC1(C)C(=O)C1=C2c2c(c3c4n2C(C)(C)CC2=C4C4(CC(C)(C)NC(C)(C4)C2=O)CC3(C)C)C(=O)C(C)(C)N1 (single isomer, unassigned; (+)) | cAMP level, agonist, LANCE Ultra cAMP | CHO | 50 µM | – | activation | 5.6% |
| COCC(=O)N1CCc2cc(-c3csc(NC(=O)c4cc(OC)cc(OC)c4)n3)ccc21 | cell-free assay | – | 10 µM | – | inhibition | 2% |
| O=C1c2sc(-c3ccc(N4CCC(F)C4)nc3F)nc2CCN1c1cccnc1 (stereo not drawn) | ligand displacement, radioligand | – | 1 µM | – | inhibition | 6% |
| CC(C)Cn1c(SCC(=O)N2CCc3ccccc3C2)nc2cc(Cl)ccc2c1=O | ligand displacement, radioligand | – | 10 µM | – | inhibition | -10% |
| NC(=O)c1cccc(CN(C(=O)NC(CN2CCCCC2)c2ccccc2)C(CN2CCCCC2)c2ccccc2)c1 (stereo not drawn) | Gi signalling | – | – | – | log(tau/KA) | 7.4 |
| COc1ncc2nc(C)n(Cc3ncc(S(N)(=O)=O)cc3F)c2c1-c1ccccc1 | antagonist, cell-based | – | 10 µM | – | inhibition | -1.71% |
| C[Si](C)(C)C[C@@H](CN)CC(=O)O | ligand displacement, radioligand | – | 75 µM | – | inhibition | 0% |

For quick reference, copied from above:
| SMILES | test | system | conditions | how to read | endpoint | result |
| --- | --- | --- | --- | --- | --- | --- |
| COc1ncc2nc(C)n(Cc3ncc(S(N)(=O)=O)cc3F)c2c1-c1ccccc1 | antagonist, cell-based | – | 10 µM | – | inhibition | -1.71% |
| Cn1ccc2cc(-n3c(=O)[nH]c4sc5c(c4c3=O)CCCC5)ccc21 | ligand displacement, radioligand | – | 10 µM | – | inhibition | 10% |
